Experimental data from different studies.
Numbered parts are unrelated; each lists some results of a single study. “And” joins repeats or separate records; there may be more than shown.
Sequence of UniProt P29376 (whole entry, looked up): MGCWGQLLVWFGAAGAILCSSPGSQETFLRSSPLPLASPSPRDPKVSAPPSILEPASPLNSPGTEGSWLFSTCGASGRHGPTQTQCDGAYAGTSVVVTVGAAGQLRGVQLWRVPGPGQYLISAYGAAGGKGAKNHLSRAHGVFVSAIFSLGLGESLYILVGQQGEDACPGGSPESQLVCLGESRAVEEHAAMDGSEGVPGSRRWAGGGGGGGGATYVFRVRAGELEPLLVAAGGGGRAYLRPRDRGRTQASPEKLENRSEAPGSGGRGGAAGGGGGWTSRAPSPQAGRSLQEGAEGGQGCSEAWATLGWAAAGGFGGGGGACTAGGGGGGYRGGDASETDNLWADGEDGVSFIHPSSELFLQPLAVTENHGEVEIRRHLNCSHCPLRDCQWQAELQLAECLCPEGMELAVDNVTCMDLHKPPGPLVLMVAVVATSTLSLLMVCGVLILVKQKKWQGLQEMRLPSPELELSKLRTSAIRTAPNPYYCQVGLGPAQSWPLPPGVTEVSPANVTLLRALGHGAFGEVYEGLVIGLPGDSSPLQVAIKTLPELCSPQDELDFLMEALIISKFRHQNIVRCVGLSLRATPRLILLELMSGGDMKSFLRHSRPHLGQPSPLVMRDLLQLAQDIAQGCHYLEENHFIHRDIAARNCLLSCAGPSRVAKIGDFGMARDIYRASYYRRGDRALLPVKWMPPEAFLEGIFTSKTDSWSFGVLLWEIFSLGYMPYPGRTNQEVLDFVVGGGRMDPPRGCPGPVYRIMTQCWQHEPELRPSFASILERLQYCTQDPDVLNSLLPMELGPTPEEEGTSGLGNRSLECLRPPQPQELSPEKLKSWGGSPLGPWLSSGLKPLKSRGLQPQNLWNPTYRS
Sequence of UniProt Q14012 (whole entry, looked up): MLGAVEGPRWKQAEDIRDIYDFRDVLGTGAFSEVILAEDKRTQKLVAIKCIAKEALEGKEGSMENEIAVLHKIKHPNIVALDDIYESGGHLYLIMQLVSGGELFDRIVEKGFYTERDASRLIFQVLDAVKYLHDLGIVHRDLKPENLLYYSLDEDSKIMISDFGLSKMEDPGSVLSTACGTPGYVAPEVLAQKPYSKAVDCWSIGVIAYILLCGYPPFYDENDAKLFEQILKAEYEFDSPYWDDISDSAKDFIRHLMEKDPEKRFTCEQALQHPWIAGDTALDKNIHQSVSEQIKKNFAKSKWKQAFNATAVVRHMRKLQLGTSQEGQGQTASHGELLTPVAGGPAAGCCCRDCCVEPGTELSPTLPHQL
Sequence of UniProt P37173 (whole entry, looked up): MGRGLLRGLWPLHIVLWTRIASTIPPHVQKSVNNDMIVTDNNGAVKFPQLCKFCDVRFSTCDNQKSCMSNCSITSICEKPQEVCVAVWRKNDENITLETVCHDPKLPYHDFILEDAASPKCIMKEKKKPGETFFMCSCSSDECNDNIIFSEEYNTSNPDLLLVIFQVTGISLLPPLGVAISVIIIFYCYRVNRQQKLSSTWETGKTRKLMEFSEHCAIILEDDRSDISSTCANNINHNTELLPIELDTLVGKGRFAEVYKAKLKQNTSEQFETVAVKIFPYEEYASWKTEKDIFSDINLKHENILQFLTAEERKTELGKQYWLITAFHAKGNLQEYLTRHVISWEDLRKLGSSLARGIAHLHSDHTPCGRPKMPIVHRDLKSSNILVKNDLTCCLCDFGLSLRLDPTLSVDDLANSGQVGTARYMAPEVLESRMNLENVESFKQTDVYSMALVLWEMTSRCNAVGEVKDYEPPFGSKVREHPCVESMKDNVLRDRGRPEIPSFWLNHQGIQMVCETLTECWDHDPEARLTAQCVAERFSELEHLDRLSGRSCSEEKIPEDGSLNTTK

Series 1 — observed: enzyme activity; action: inhibitor; concentration: 0.5 µM; reference: control
Target: Inhibitor of nuclear factor kappa-B kinase subunit alpha (CHUK, Homo sapiens, UniProt O15111)
Construct (O15111 1-745): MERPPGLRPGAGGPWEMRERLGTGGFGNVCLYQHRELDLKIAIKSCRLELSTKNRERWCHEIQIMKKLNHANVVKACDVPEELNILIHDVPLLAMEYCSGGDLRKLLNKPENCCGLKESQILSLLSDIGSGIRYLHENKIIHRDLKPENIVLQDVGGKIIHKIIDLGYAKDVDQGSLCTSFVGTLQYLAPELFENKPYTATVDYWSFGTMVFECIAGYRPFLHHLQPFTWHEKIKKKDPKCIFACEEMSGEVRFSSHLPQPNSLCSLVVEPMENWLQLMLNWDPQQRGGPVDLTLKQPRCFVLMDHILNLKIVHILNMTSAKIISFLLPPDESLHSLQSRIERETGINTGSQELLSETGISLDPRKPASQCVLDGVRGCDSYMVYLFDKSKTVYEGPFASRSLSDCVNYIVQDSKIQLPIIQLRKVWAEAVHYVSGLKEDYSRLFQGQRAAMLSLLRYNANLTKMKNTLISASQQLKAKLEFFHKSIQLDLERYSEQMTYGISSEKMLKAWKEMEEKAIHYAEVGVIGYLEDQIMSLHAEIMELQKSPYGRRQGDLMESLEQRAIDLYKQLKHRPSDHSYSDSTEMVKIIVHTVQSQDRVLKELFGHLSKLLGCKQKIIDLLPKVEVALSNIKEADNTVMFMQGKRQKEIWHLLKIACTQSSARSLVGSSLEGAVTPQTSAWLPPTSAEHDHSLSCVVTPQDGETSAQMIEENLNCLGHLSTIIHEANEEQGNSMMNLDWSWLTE
For `CCN1/C(=C/C(C)=O)Sc2ccc(OC)cc21`, the remaining activity was 89.9%.
The remaining activity of `C[S+]([O-])c1ccc(-c2nc(-c3ccncc3)c(-c3ccc(F)cc3)[nH]2)cc1` (stereo not drawn) is reported as 100%.
For `Nc1[nH]nc2nnc(-c3c(-c4ccccc4)nn4ccccc34)cc12`, the remaining activity was 97.5%.
With `CC(=O)O/N=C1/C(c2c(O)[nH]c3cc(Br)ccc23)=Nc2ccccc21` the remaining activity was 98.3%.
`CCOc1cc2ncnc(Nc3cccc(Br)c3)c2cc1OCC` gave a remaining activity of 105%.
With `CC(C)c1nn(-c2c(Cl)cccc2Cl)c2nc(Cc3ccc(OCCO)cc3)[nH]c(=O)c12` the remaining activity was 98.5%.
For `Cn1cnc2cc3c(Nc4cccc(Br)c4)ncnc3cc21`, the remaining activity was 89.7%.
For `COc1cc2ncc(-c3ccccc3)nc2cc1OC`, the remaining activity was 113%.
With `Cn1cc(/C=C2\C(=O)Nc3ccc(S(N)(=O)=O)cc32)c2ccccc21` the remaining activity was 109%.
`CN(C)CCCn1cc(C2=C(c3c[nH]c4ccccc34)C(=O)NC2=O)c2ccccc21` has a remaining activity of 105%.
`COc1cc2ncnc(N3CCN(C(=O)Nc4ccc(Oc5ccccc5)cc4)CC3)c2cc1OC` gave a remaining activity of 96%.
`O=C(Nc1ccc(Cl)cc1)c1ccccc1NCc1ccncc1` has a remaining activity of 104%.
With `CS(=O)(=O)CCNCc1ccc(-c2ccc3ncnc(Nc4ccc(OCc5cccc(F)c5)c(Cl)c4)c3c2)o1` the remaining activity was 99.5%.
With `COc1cc2ncnc(Nc3ccc(OCc4ccccc4)cc3)c2cc1OC` the remaining activity was 95.1%.
For `CC(C)[C@H](CO)Nc1nc(Nc2cccc(Cl)c2)c2ncn(C(C)C)c2n1`, the remaining activity was 106%.
For `CCC(=O)Nc1ccc2ncnc(Nc3cccc(Br)c3)c2c1`, the remaining activity was 99.3%.
The remaining activity of `COc1ccc(Cl)cc1NC(=O)Nc1cc(C)nc2ccccc12` is reported as 100%.
For `COc1ccc(-c2cnc3c(-c4ccsc4)cnn3c2)cc1`, the remaining activity was 94.5%.
For `O=c1cc(N2CCOCC2)oc2c1ccc1ccccc12`, the remaining activity was 93.4%.
`Cc1nc(Nc2ncc(C(=O)Nc3c(C)cccc3Cl)s2)cc(N2CCN(CCO)CC2)n1` gave a remaining activity of 95%.
`O=C1NC(=O)/C(=C/c2ccc3nccnc3c2)S1` gave a remaining activity of 86.7%.

Series 2 — observed: cell-free assay; method: competition with immobilised ligand; concentration: 1 µM
Structure (SMILES): O=C(NCc1ncc(C(F)(F)F)cc1Cl)c1ccc2c(c1)C1(CCS(=O)(=O)CC1)[C@@H](C1CC1)N2S(=O)(=O)c1ccc(F)cc1
For Phosphatidylinositol 4,5-bisphosphate 3-kinase catalytic subunit alpha isoform (PIK3CA, Homo sapiens, UniProt P42336, C420R): remaining binding read 77%.
Leucine-rich repeat serine/threonine-protein kinase 2 (LRRK2, Homo sapiens, UniProt Q5S007) — remaining binding: 98%.
Receptor-type tyrosine-protein kinase FLT3 (FLT3, Homo sapiens, UniProt P36888, F691L/ITD) — remaining binding: 58%.
Dual specificity protein kinase CLK1 (CLK1, Homo sapiens, UniProt P49759) — remaining binding: 100%.
Serine/threonine-protein kinase DCLK1 (DCLK1, Homo sapiens, UniProt O15075) — remaining binding: 74%.
The remaining binding was 70% (Tyrosine-protein kinase JAK2, JH1 (JAK2, Homo sapiens, UniProt O60674)).
For Tyrosine-protein kinase Fyn (FYN, Homo sapiens, UniProt P06241): remaining binding read 70%.
The remaining binding was 71% (TGF-beta receptor type-2 (TGFBR2, Homo sapiens, UniProt P37173)).
For Tyrosine-protein kinase receptor UFO (AXL, Homo sapiens, UniProt P30530): remaining binding read 100%.
For Cytoplasmic tyrosine-protein kinase BMX (BMX, Homo sapiens, UniProt P51813): remaining binding read 92%.
It gave 100% for remaining binding (RAF proto-oncogene serine/threonine-protein kinase (RAF1, Homo sapiens, UniProt P04049)).
It gave 94% for remaining binding (Ephrin type-B receptor 4 (EPHB4, Homo sapiens, UniProt P54760)).
Calcium/calmodulin-dependent protein kinase type 1 (CAMK1, Homo sapiens, UniProt Q14012) — remaining binding: 97%.
For Serine/threonine-protein kinase TNNI3K (TNNI3K, Homo sapiens, UniProt Q59H18): remaining binding read 100%.
For Leukocyte tyrosine kinase receptor (LTK, Homo sapiens, UniProt P29376): remaining binding read 81%.

Series 3 — observed: enzyme activity; action: inhibitor; concentration: 77 µM; reference: untreated
Target: DNA polymerase theta, ATPase domain (POLQ, Homo sapiens, UniProt O75417)
Sequence of UniProt O75417 (whole entry, unmodified, looked up): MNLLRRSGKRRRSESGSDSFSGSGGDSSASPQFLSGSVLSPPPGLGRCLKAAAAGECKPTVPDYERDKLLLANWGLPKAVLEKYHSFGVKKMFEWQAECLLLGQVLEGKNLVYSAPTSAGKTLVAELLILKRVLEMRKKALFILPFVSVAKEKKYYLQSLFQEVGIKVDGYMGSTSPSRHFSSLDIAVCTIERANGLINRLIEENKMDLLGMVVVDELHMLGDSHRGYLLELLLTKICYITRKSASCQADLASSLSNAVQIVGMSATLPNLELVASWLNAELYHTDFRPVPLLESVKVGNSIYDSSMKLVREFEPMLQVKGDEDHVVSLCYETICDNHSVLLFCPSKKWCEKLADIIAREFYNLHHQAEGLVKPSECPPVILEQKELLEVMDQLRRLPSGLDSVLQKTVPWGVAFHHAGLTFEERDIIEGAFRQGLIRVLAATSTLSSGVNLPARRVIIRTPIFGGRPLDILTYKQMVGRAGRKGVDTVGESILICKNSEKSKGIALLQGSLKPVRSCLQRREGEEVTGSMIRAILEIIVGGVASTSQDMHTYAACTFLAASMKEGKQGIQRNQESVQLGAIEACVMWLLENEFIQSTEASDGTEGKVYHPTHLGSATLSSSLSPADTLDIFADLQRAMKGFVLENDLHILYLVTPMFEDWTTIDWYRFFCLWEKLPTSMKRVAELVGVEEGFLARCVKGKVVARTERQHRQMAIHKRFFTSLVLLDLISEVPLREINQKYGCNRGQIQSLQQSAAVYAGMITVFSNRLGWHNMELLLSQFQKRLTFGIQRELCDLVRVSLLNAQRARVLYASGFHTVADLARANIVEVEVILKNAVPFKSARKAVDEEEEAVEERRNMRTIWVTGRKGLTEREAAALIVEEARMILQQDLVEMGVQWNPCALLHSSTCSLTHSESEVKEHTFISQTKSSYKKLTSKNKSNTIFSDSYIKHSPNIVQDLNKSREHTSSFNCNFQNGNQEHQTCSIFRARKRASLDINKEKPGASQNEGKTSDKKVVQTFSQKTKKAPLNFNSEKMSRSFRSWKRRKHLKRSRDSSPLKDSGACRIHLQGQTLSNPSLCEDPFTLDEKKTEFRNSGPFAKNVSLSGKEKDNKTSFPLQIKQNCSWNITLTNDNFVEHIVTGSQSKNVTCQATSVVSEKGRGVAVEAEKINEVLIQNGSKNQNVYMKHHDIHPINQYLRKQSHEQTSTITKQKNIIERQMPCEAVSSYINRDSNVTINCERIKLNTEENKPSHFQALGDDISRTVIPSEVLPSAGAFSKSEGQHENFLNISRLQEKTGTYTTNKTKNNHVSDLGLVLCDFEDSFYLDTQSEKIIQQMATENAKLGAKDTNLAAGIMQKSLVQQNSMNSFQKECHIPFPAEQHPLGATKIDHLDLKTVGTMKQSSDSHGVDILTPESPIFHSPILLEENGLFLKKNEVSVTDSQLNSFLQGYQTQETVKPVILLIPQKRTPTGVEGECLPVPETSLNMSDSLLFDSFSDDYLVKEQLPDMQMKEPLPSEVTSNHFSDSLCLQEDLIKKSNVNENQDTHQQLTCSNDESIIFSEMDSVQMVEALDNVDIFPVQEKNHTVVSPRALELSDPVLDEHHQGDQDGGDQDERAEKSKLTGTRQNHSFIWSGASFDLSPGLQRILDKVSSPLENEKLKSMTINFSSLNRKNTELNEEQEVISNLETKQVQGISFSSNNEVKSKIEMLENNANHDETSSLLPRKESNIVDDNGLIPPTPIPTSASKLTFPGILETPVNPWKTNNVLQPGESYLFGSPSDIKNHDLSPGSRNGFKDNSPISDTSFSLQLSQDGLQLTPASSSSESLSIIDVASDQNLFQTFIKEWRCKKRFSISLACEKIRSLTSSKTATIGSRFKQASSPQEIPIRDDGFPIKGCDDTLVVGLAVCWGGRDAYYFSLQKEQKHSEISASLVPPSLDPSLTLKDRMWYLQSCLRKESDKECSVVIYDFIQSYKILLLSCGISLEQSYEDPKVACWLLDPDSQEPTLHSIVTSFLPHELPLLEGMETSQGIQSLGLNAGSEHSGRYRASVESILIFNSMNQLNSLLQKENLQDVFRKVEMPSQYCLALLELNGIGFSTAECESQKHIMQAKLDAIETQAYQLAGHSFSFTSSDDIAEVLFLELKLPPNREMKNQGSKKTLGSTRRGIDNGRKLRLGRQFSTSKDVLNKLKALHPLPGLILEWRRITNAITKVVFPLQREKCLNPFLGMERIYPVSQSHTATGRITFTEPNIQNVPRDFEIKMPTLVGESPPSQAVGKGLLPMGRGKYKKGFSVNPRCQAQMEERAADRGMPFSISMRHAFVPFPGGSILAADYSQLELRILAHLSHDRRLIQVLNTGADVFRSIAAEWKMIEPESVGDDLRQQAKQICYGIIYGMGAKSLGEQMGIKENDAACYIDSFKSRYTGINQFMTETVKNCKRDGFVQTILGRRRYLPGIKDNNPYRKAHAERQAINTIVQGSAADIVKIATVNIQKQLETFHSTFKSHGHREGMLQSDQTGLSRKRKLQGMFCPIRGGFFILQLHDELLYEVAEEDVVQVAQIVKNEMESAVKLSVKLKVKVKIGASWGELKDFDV
`CCC1(c2ccccc2)NC(=O)N(C)C1=O` (stereo not drawn) gave a remaining activity of 96.1%.
The remaining activity of `O=c1[nH]cnc2[nH]ncc12` is reported as 101%.
With `Cc1nc(-c2ccc(OCC(C)C)c(C#N)c2)sc1C(=O)O` the remaining activity was 87.4%.
`CC[C@H]1OC(=O)C[C@@H](O)[C@H](C)[C@@H](O[C@@H]2O[C@H](C)[C@@H](O[C@H]3C[C@@](C)(O)[C@@H](O)[C@H](C)O3)[C@H](N(C)C)[C@H]2O)[C@@H](CC=O)C[C@@H](C)C(=O)/C=C/C(C)=C/[C@@H]1CO[C@@H]1O[C@H](C)[C@@H](O)[C@@H](OC)[C@H]1OC` gave a remaining activity of 97.5%.
For `[N-]=[N+]=Nc1ccc(C(=O)CSC[C@H](NC(=O)CC[C@H](N)C(=O)O)C(=O)NCC(=O)O)cc1`, the remaining activity was 85.5%.
The remaining activity of `CCN(CC)CCNC(=O)c1cc(Cl)c(N)cc1OC` is reported as 98% and 102%.
With `COc1c(O)cc2c(c1O)[C@@H]1O[C@H](CO)[C@@H](O)[C@H](O)[C@H]1OC2=O` the remaining activity was 106% and 101%.
The remaining activity of `CC(C)c1cc(-c2n[nH]c(=O)n2-c2ccc3c(ccn3C)c2)c(O)cc1O` is reported as 102%.
For `N[C@@H](Cc1ccc(F)cc1)C(=O)O`, the remaining activity was 101%.
`CC(C)OC(=O)OCOP(=O)(CO[C@H](C)Cn1cnc2c(N)ncnc21)OCOC(=O)OC(C)C` has a remaining activity of 96.2%.
For `CC[C@]12CCCN3CCc4c(n(c5ccccc45)[C@](O)(C(=O)OC)C1)[C@@H]32`, the remaining activity was 93.2%.
For `NOCC(=O)O`, the remaining activity was 102%.

Series 4 — observed: enzyme activity; action: inhibitor; concentration: 10 µM
Target: Calcium/calmodulin-dependent protein kinase type II subunit alpha (CAMK2A, Homo sapiens, UniProt Q9UQM7)
Sequence of UniProt Q9UQM7 (whole entry, looked up): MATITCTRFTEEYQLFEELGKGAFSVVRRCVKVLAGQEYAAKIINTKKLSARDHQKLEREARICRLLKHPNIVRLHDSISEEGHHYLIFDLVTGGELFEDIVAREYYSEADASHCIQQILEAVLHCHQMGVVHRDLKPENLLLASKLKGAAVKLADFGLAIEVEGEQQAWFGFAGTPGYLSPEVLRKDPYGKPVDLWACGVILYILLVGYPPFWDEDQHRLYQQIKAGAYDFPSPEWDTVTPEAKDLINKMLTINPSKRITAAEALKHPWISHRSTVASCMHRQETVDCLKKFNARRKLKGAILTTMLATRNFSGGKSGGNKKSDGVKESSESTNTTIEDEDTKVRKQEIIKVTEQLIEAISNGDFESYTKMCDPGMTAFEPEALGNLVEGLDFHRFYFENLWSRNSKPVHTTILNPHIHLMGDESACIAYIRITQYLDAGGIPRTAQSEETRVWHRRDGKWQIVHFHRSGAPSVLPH
With `Nc1nc2c(ncn2[C@@H]2O[C@H](COP(=O)(O)OP(=O)(O)O[C@H]3O[C@H](CO)[C@@H](O)[C@H](O)[C@@H]3O)[C@@H](O)[C@H]2O)c(=O)[nH]1` the inhibition was -20%.
With `COc1cc2c(cc1OC)[C@H]1CC(=O)[C@H](CC(C)C)CN1CC2` the inhibition was -0.07%.
The inhibition of `CN1[C@@H]2CC[C@H]1CC(OC(=O)c1c[nH]c3ccccc13)C2` (stereo partly drawn) is reported as -0.05%.
`CCS(=O)(=O)CCn1c([N+](=O)[O-])cnc1C` has an inhibition of -2%.
The inhibition of `COc1ccc(-c2cc(=O)c3c(OC)c(OC)c(OC)cc3o2)cc1OC` is reported as -16%.
`O=c1cccccc1` has an inhibition of -3%.
With `O=C(Nc1ccc([N+](=O)[O-])cc1Cl)c1cc(Cl)ccc1O` the inhibition was -5%.
For `O=c1c(O[C@@H]2O[C@H](CO)[C@@H](O)[C@H](O)[C@H]2O[C@@H]2O[C@H](CO)[C@@H](O)[C@H](O)[C@H]2O)c(-c2ccc(O)cc2)oc2cc(O)cc(O)c12`, the inhibition was -32%.
`Nc1cc(-c2ccncc2)c[nH]c1=O` has an inhibition of -8%.
For `COc1ccc(CCN2CCC(Nc3nc4ccccc4n3Cc3ccc(F)cc3)CC2)cc1`, the inhibition was -5%.
For `CCCN1CC(c2ccc(S(C)(=O)=O)cc2)=C(c2ccc(C)cc2)C1=O`, the inhibition was 0%.
`CC(C)(C)NC(=O)[C@H]1CC[C@H]2[C@@H]3CC[C@H]4NC(=O)C=C[C@]4(C)[C@H]3CC[C@]12C` has an inhibition of -2%.
`Nc1cc(C(=O)O)ccc1O` has an inhibition of -23%.
With `CC1=C(C)C(=O)C(CCCCCCCCCC[P+](c2ccccc2)(c2ccccc2)c2ccccc2)=CC1=O` the inhibition was -5%.
For `COC(=O)c1ccc2c(c1)NC(=O)/C2=C(\Nc1ccc(N(C)C(=O)CN2CCN(C)CC2)cc1)c1ccccc1`, the inhibition was 0.05% and 0.12%.

Some of these lines once more (series 2):
For Phosphatidylinositol 4,5-bisphosphate 3-kinase catalytic subunit alpha isoform (PIK3CA, Homo sapiens, UniProt P42336, C420R): remaining binding read 77%.
Leucine-rich repeat serine/threonine-protein kinase 2 (LRRK2, Homo sapiens, UniProt Q5S007) — remaining binding: 98%.
Receptor-type tyrosine-protein kinase FLT3 (FLT3, Homo sapiens, UniProt P36888, F691L/ITD) — remaining binding: 58%.
Dual specificity protein kinase CLK1 (CLK1, Homo sapiens, UniProt P49759) — remaining binding: 100%.
Serine/threonine-protein kinase DCLK1 (DCLK1, Homo sapiens, UniProt O15075) — remaining binding: 74%.
The remaining binding was 70% (Tyrosine-protein kinase JAK2, JH1 (JAK2, Homo sapiens, UniProt O60674)).
